Experimental data pooled from the literature.
Protocols differ between the studies behind these lines. ± gives the spread as reported. Converted amounts (≈) assume the structure as drawn.

`C[C@@H]1OC(=O)NN=C1c1ccc(-c2ccc(F)cc2)c(C(F)(F)F)c1`: “patients with adverse event” 50% (phase I trial, measured: Cough all grades; human patients; 20 mg loading then 1 mg daily).
For `COc1ncnn2ccc(-c3cnc4nc(C)n(Cc5nnc([C@@H](C)F)o5)c4c3)c12`, “patients with diarrhea” read 7.1% (human; oral, dose not given, grade 3).
With `CN(C(=O)n1cnc(-c2ccc[n+]([O-])c2)c1)C1CCCCC1` the concentration was 117 ± 36.9 ng/g (Wistar rat, midbrain; oral, 10 mg/kg, 4 h, single dose).
The HC50 of `O=C(CCCN1CCC(O)(c2ccc(Cl)cc2)CC1)c1ccc(Br)cc1` is reported as over 128 µg/mL (haemolysis; sheep erythrocytes; 1 h, pH 7.5).
`Cc1cccc(Cn2nc(C3CC3)c3c(NC(=O)c4cnc5cc(OCCN6CCN(C)CC6)ccn45)cccc32)n1` — result for “adverse events incidence”: 36.8% (measured: Fatigue; human advanced solid tumours; oral, dose not given, all-causality,, all doses).
Under “patients with adverse event”, `CCN(CCO)CCCC(C)Nc1ccnc2cc(Cl)ccc12` (stereo not shown) is recorded as 33% (measured: Epistaxis grade 1; newly diagnosed glioblastoma patients; oral, 800 mg/dose, with radiotherapy and temozolomide).
With `COc1ncccc1-c1cnn2ccc(N3CCN(C(=O)OC(C)C)CC3)nc12` the concentration was 5.6 µM (rat, thoracic spinal cord; oral, 30 mg/kg, 1.5 h, with: yohimbine pretreatment).
`COc1cc2c(Oc3ccc4[nH]c(C)cc4c3F)ccnc2cc1OCC1(N)CC1` — result for “grade 1 or 2 Myalgia”: 0% (paediatric recurrent refractory sarcoma; 12 mg).
`Cn1nc(NS(C)(=O)=O)c2c(Cl)ccc(-n3c([C@H](Cc4cc(F)cc(F)c4)NC(=O)Cn4nc(C(F)F)c5c4C(F)(F)[C@@H]4C[C@H]54)nc4nc(OCCC(F)(F)F)ccc4c3=O)c21` has an AUC(0-inf) reduction of 45% (human; oral, dose not given, single dose tablet; relative to: powder in bottle).
With `CN1CCN(S(=O)(=O)c2cc([N+](=O)[O-])ccc2N(CCOS(C)(=O)=O)CCOS(C)(=O)=O)CC1` the calcium was 2.7 mmol/L (naive NOD/SCID mice, pooled blood; intraperitoneal, 18.8 mg/kg, week 4).
`CCc1ccc(CC/C=C/c2ccc3c(c2)C(=O)CC3)cc1` has an Eosinophil percentage of 0.5% (Sprague-Dawley rat, male; oral, 30 mg/kg/day, 14 days).
For `Cn1cncc1-c1c(F)cncc1NC(=O)c1c(N)nn2cc(F)cnc12`, “grade ≥3 anaemia incidence” read 0% (human patients; oral, 80 mg once daily).
For `C=CC(=O)Nc1cc(Nc2nccc(Nc3cc(Cl)c(F)cc3C(C)(C)O)n2)c(OC)cc1N1CC[C@@H](N(C)C)C1`, “patients with pneumonia” read 6.3% (human patients; oral, 200 mg, treatment-emergent adverse events).
`Cc1ccc(NS(=O)(=O)c2cccc(C(=O)NC3CCN(c4ncnc5[nH]cnc45)CC3)c2)cc1` gave a viability of 100% (human; 0.01016 µM, 24 (unit not given)).
Under “incidence of fatal serious TEAEs”, `C=CC(=O)N1CCC(c2ccc(C(N)=O)c(-c3ccc(Oc4ccccc4)cc3)n2)CC1` is recorded as 0% (CTCAE 4.03; patients with relapsed/refractory MCL; oral, dose not given, total).
For `COc1cc(Nc2ncc(F)c(Nc3ccc4c(n3)NC(=O)C(C)(C)O4)n2)cc(OC)c1OC`, the solubility was 57.1 µM (≈ 26.9 µg/mL) (kinase assay buffer; 24 h, 0.3% DMSO).
`CC(C)[C@H](C(=O)O[C@H](C#N)c1cccc(Oc2ccccc2)c1)c1ccc(Cl)cc1` — result for “enzyme contribution to clearance”: 3.04% (measured: CYP2C19; human, age 5 years).
`C[C@]1(CO)Cc2ncn(-c3ccc(C#N)c(Cl)c3)c2C(=O)O1` — result for “drug-related orthostatic hypotension”: 11.1% (healthy Japanese subjects; dose not given, single dose, all doses).
`[O-][S+]1CCc2nc(N3CCC(c4ncc(Cl)cn4)CC3)nc(NC3(CO)CCC3)c21` (stereo not shown) — result for “adverse event incidence”: 0% (measured: Dizziness; healthy male humans; 6 mg twice daily).
For `O=C(Nc1ccc2c(c1)B(O)OC2)c1ccccc1OCc1ccccc1`, the donor concentration was 161 ± 69.1 µM (PAMPA; pre-coated trilayer membrane; 200 µM, 5 h, pH 7.4, donor plate, PBS).
For `Fc1ccc([C@@H]2CCNC[C@H]2COc2ccc3c(c2)OCO3)cc1`, “List of Complaints score” read 0 score (measured: Irritability; healthy volunteers; oral, dose not given, given -1 h relative to LSD, with: LSD; direction not given).
For `CC(=O)c1c(C)c2cnc(Nc3ccc(C4CCN(CCS(C)(=O)=O)CC4)cn3)nc2n(C2CCCC2)c1=O`, the Cmax was 75.6 ng/mL (human, dose-escalation trial, plasma; oral, 25 mg twice daily, day 1, single dose).
`O=C1Nc2cc3[nH]nc(-c4ccncc4)c3cc2CN1Cc1ccccc1`: “patients with TEAE” 18% (measured: increased GGT; patients with advanced solid tumours; intravenous, dose not given, both schedules pooled).
`CO[C@H]1C[C@@H]2CC[C@@H](C)[C@@](O)(O2)C(=O)C(=O)N2CCCC[C@H]2C(=O)O[C@H]([C@H](C)C[C@@H]2CC[C@@H](OC(=O)NCCOCCOCCOCCOCCOCCOCCOCCOCCC(=O)N3CCc4cc(Cn5nc(-c6ccc7oc(N)nc7c6)c6c(N)ncnc65)ccc4C3)[C@H](OC)C2)C[C@@H](O)[C@H](C)/C=C(\C)[C@@H](O)[C@@H](OC)C(=O)[C@H](C)C[C@H](C)/C=C/C=C/C=C/1C` has a constipation incidence of 25% (patients with advanced solid tumours; intravenous, 16 mg weekly, any grade).
`N#Cc1cc(NC(=O)[C@H]2c3ccccc3C(=O)N(CC(F)(F)F)[C@@H]2c2cccnc2)ccc1F` has a dose of 100 mg/kg (Beagle dog; no respiratory or methemoglobin change).
`COc1ccc2nc3cc(Cl)ccc3c(Nc3cc(CN4CCCC4)c(O)c(CN4CCCC4)c3)c2n1`: “red cell distribution width (SD)” 24.9 fL (mouse, blood; intraperitoneal, 14 mg/kg).
For `C[C@@H](NC(=O)N1C(=O)[C@H](Cc2ccnc(N)c2)[C@H]1C(=O)O)C1CCCCC1`, “incidence of elevated neutrophil” read 12.5% (healthy adult Chinese volunteers; continuous intravenous infusion, 0.3 mg/kg/h, 5-day infusion, CTCAE 5.0 grading).
For `CN1CC[C@@H](c2c(O)cc(O)c3c(=O)cc(-c4ccc(C(F)(F)F)cc4Cl)oc23)[C@@H]1CO`, “patients with adverse event” read 0% (measured: Hypoalbuminemia; relapsed B-cell malignancies; oral, 200 mg, grade 3-4, intermittent dosing).
`O=S(=O)(Nc1ccccc1)c1ccc(NC(=S)Nc2ccccc2)cc1` has a cholesterol level of 206 mg/dL (male mouse, blood; oral, 20 mg/kg daily, 14 days).
`COc1ccc(C(C)(C)c2cnc(SCCOc3ccc(-n4ccnc4)cc3)n2-c2ccc(F)cc2)cc1OC`: “CYP1A2 induction Emax” 5.01 fold (measured: CYP1A2 mRNA; sandwich-cultured human hepatocytes; 48 h; relative to: vehicle).
`CC(C)c1nc(N(C)S(C)(=O)=O)nc(-c2ccc(F)cc2)c1/C=C/[C@@H](O)C[C@@H](O)CC(=O)O`: “incidence of neck pain” 0% (healthy human subjects; oral, dose not given, study CL-0537 safety set).
`CC(C)[C@@H]1NC(=O)CNC(=O)[C@H](CC(N)=O)NC(=O)[C@H](CCCNC(=N)N)NC(=O)[C@H](Cc2ccc(O)cc2)NC(=O)[C@H](C(C)C)NC(=O)[C@@H](NC(=O)[C@@H](NC(=O)[C@H](CC(N)=O)NC(=O)[C@H](Cc2c[nH]c3ccccc23)NC(=O)[C@H](C)NC(=O)[C@H](Cc2ccccc2)NC(=O)CN)C(C)C)CSSC[C@@H](C(=O)N[C@@H](Cc2c[nH]cn2)C(=O)N[C@@H](CCCNC(=N)N)C(=O)N[C@@H](CCCNC(=N)N)C(=O)N[C@@H](C)C(=O)N[C@@H](CC(N)=O)C(N)=O)NC(=O)[C@H](C(C)C)NC(=O)[C@H](CCCNC(=N)N)NC1=O` — result for “secondary structure content”: 36.1% (circular dichroism, measured: antiparallel β-sheet; PBS; 80 µM, pH 7.4, with: LTA 1 µM).
`O=[N+]([O-])c1ccc2c(c1)S(=O)(=O)C=C2` gave a spleen weight of 0.121 g (male C57BL/6 mice; i.p., 10 mg/kg, day 8, repeated dosing).
`O=C(Nc1ccccc1)C1CCN(C(=O)Oc2cccnc2)CC1` — result for “subjects with eye disorders”: 7.1% (adverse event reporting; healthy women; oral, 60 mg, 7 days).
The concentration of `Clc1ccc(Cl)c(-c2cc(Cl)ccc2Cl)c1` is reported as 1 ng/g (Sprague Dawley rat female, serum; intraperitoneal, 1 mg/kg, 3 weeks).
`COc1ccc(-c2c(-c3ccc(C#N)c(F)c3)nc(N3CCC(N)CC3)n(C)c2=O)cc1F` — result for “serious adverse event incidence”: 2% (measured: Gout; human patients; oral, dose not given, dose escalation, NG).
Under “patients with fatigue TEAE”, `C=CCNc1c(O)cc2c(O)c1C[C@@H](C)C[C@H](OC)[C@H](O)[C@@H](C)/C=C(\C)[C@H](OC(N)=O)[C@@H](OC)/C=C\C=C(/C)C(=O)N2` is recorded as 67% (unresectable or metastatic STS, GIST, other; intravenous, 225 mg/m^2).

Repeated from above:
For `COc1cc(Nc2ncc(F)c(Nc3ccc4c(n3)NC(=O)C(C)(C)O4)n2)cc(OC)c1OC`, the solubility was 57.1 µM (≈ 26.9 µg/mL) (kinase assay buffer; 24 h, 0.3% DMSO).
`CC(C)[C@H](C(=O)O[C@H](C#N)c1cccc(Oc2ccccc2)c1)c1ccc(Cl)cc1` — result for “enzyme contribution to clearance”: 3.04% (measured: CYP2C19; human, age 5 years).
`C[C@]1(CO)Cc2ncn(-c3ccc(C#N)c(Cl)c3)c2C(=O)O1` — result for “drug-related orthostatic hypotension”: 11.1% (healthy Japanese subjects; dose not given, single dose, all doses).
`[O-][S+]1CCc2nc(N3CCC(c4ncc(Cl)cn4)CC3)nc(NC3(CO)CCC3)c21` (stereo not shown) — result for “adverse event incidence”: 0% (measured: Dizziness; healthy male humans; 6 mg twice daily).
For `O=C(Nc1ccc2c(c1)B(O)OC2)c1ccccc1OCc1ccccc1`, the donor concentration was 161 ± 69.1 µM (PAMPA; pre-coated trilayer membrane; 200 µM, 5 h, pH 7.4, donor plate, PBS).
For `Fc1ccc([C@@H]2CCNC[C@H]2COc2ccc3c(c2)OCO3)cc1`, “List of Complaints score” read 0 score (measured: Irritability; healthy volunteers; oral, dose not given, given -1 h relative to LSD, with: LSD; direction not given).
